Assay results from different studies.
Each line is one published result; not all experiments were run side by side. ± marks the error that the study gave. Converted amounts (≈) assume the structure as drawn.

COc1ccc(-n2c(SCCN3CCOCC3)nnc2[C@H](Cc2ccccc2)NC(=O)Cc2c(C)[nH]c3ccccc23)cc1 has a selectivity index of 16 (HIV-2; MT-4, wild type; reference: CC50 over EC50).
For CNCc1ccc2c(c1)N(C(=O)OCC(O)CO)[C@H](CNC(=N)N)[C@H]2NC(=O)C(=O)Nc1ccc(Cl)c(F)c1 (stereo partly shown), “potency fold increase” read 2.5 fold (HIV-1 JR-FL pseudovirus; viral infection; Cf2Th-CD4/CCR5 cells; reference: BNM-III-170).
CCn1c(SCc2ccc(C#N)cc2)nc2cc3ccccc3cc2c1=O — result for “virus titre reduction”: 20 ± 1% (coxsackievirus B4; plaque; BGM; concentration not given, non-toxic dose).
CC[C@@H](C)[C@@H](NC(=O)[C@@H](C)N)C(=O)N[C@H](CCCCN)C(=O)N[C@@H](C(=O)N[C@H](CCCNC(=N)N)C(=O)N[C@H](CCCCN)C(=O)N[C@H](CC(C)C)C(=O)N[C@H](Cc1ccccc1)C(=O)N[C@H](CCCCN)C(=O)N[C@H](CCCCN)C(=O)N[C@H](CC(C)C)C(=O)N[C@H](CC(C)C)C(=O)N[C@H](CCCNC(=N)N)C(N)=O)[C@H](C)CC has an FICI of 0.313 (Escherichia coli; checkerboard; ATCC 25922; unit not given, added: gentamicin; lower = stronger synergy).
For CCOC(=O)C1=C(C)NC2=C(C(=O)CC(C)(C)C2)C1c1ccc(OCC(=O)NN=Cc2cc(Br)c(O)c(Br)c2)cc1OCC(=O)NN=Cc1cc(Br)c(O)c(Br)c1 (stereo not shown), “inhibition zone diameter” read 5.6 ± 0.3 mm (Proteus vulgaris; FMC II; concentration not given, 24 h, 37 °C).
CCCCCCCCCC(=O)N[C@@H](Cc1c[nH]c2ccccc12)C(=O)N[C@H](CC(N)=O)C(=O)N[C@@H](CC(=O)O)C(=O)N[C@@H]1C(=O)NCC(=O)N[C@@H](CCCNC(=O)OC2/C=C/CCCCC2)C(=O)N[C@@H](CC(=O)O)C(=O)N[C@H](C)C(=O)N[C@@H](CC(=O)O)C(=O)NCC(=O)N[C@H](CO)C(=O)N[C@@H]([C@H](C)CC(=O)O)C(=O)N[C@@H](CC(=O)c2ccccc2N)C(=O)O[C@@H]1C (stereo partly shown): “minimum heat inhibitory concentration” 1 µg/mL (Staphylococcus aureus; isothermal microcalorimetry; MSSA; 24 h, 37 °C, TAG gel).
For CC[C@@H](C)[C@@H](NC(=O)[C@@H](C)NC(=O)[C@@H](CCCCN)NC(=O)[C@@H](CC(C)C)NC(=O)[C@@H](CC(C)C)NC(=O)[C@H](NC(=O)[C@@H](CCCCN)NC(=O)[C@@H](CC(C)C)NC(=O)[C@@H](CCCCN)NC(=O)[C@@H](CCCCN)NC(=O)[C@@H](CCCCN)NC(=O)[C@@H](CCCCN)NC(=O)[C@@H](C)NC(=O)[C@@H](CCCCN)NC(=O)[C@@H](CO)NC(=O)[C@@H](Cc1ccccc1)NC(=O)[C@H](NC(=O)[C@@H](CCCCN)NC(=O)[C@@H](CC(C)C)NC(=O)[C@@H](Cc1ccccc1)NC(=O)[C@@H](CO)NC(=O)[C@@H](CCCCN)NC(=O)[C@@H](Cc1c[nH]c2ccccc12)NC(=O)[C@@H](CCCCN)NC(C)=O)[C@H](C)O)[C@H](C)O)C(=O)N[C@H](CO)C(=O)N[C@H](CCCCN)C(N)=O, “MIC geometric mean” read 0.8 µM (≈ 2.5 µg/mL) (Acinetobacter baumannii; 11 isolates; 24 h, 37 °C).
For COc1ccc(S(=O)(=O)NCc2c[nH]nc2-c2cccs2)cc1, “lag time before killing” read 24 h (Plasmodium falciparum; parasite reduction ratio; 3D7; 10 × IC50).
CC(C)=CCC1CC(=O)C(C)=CC2C=C(C)CC(c3ccccc3)C2C(=O)C2=C(O)C(C)(CC=C1C)C(=O)C(C)(C)C2=O (stereo not shown) — result for “Akt, mTOR, p70S6K phosphorylation”: “decreased” (human respiratory syncytial virus; western blot; HEp-2; 5 or 10 µM, 24 h post-infection).
COc1ccc(-c2nc(-c3ccccc3OC)[nH]c2-c2ccc(OC)cc2)cc1 gave a worm killing of 0% (Schistosoma mansoni; female worms; 50 µM).
For CC1(CCCCCCCCCCCCOCCCOP(=O)(O)CO[C@H](CO)Cn2ccc(N)nc2=O)COC1, the selectivity index was > 1670 (human gammaherpesvirus 8; qPCR; BCBL-1; reference: CC50 over EC50).
Cc1ncc([N+](=O)[O-])n1CCOCc1nnc(SCC(=O)c2ccc(O)cc2)o1 — result for “inhibition zone diameter”: 10 to 15 mm (Streptococcus pyogenes; DMSO; 60 µg/mL, 24 h, 37 °C).
CC(C)(C)NCC(SS(=O)(=O)O)c1ccccc1 (stereo not shown): activity “inactive” (Schistosoma mansoni; phenotypic changes; somules and adults; up to 10 µM, 3 days).
CO[C@H]1/C=C/O[C@@]2(C)Oc3c(C)c(O)c4c(c3C2=O)C2=NC3(CCN(CC(C)C)CC3)NC2=C(NC(=O)/C(C)=C\C=C\[C@H](C)[C@H](O)[C@@H](C)[C@@H](O)[C@@H](C)[C@H](OC(=O)c2nccs2)[C@@H]1C)C4=O gave an MIC ratio of 1 (Mycobacteroides abscessus; ATCC 19977; reference: wild type over arr deletion).
CCCCSC[C@H]1CN(Cc2c[nH]c3c(N)ncnc23)C[C@@H]1O gave an IC90 of 6 to 8 ng/mL (≈ 0.0179 to 0.0238 µM) (Helicobacter pylori; growth; horse blood agar 5%).
Nc1ccn(C[C@@H](CO)OCP(=O)(O)OCCCS(=O)(=O)CCCCCCCCCCC2CCC2)c(=O)n1 has a selectivity index of > 667 (Murid betaherpesvirus 1; qPCR; MEF, Smith; reference: CC50 over EC50).
COc1ccc(-n2c(SCc3ccncc3)nnc2[C@H](Cc2ccccc2)NC(=O)Cc2c(C)[nH]c3ccccc23)cc1 has a selectivity index of 6 (HIV-2; MT-4, wild type; reference: CC50 over EC50).
For CC(C)(C)OC(=O)/C=C/c1ccc(O)c(C(=O)C(CCC(=O)OC(C)(C)C)CCC(=O)OC(C)(C)C)c1, the selectivity index was 65 (Trypanosoma brucei rhodesiense; STIB900 bloodstream forms; reference: L6 cell cytotoxicity over T. b. rhodesiense activity).
CN[C@@H]1[C@H](O)[C@H](NC)[C@H]2O[C@]3(O)[C@H](O[C@@H]2[C@H]1O)O[C@H](C)C[C@@]3(O)CNCCc1ccc(C)cc1 — result for “intracellular accumulation ratio”: 13.2 fold (Mycobacteroides abscessus; LC-MS/MS, refers to: intracellular compound; ATCC 19977; 100 µM, 30 min; reference: compound over spectinomycin).
With CN[C@H](CC(C)C)C(=O)N[C@H]1C(=O)N[C@@H](CC(N)=O)C(=O)N[C@H]2C(=O)N[C@H]3C(=O)N[C@H](C(=O)N[C@H](C(=O)O)c4cc(O)cc(O)c4-c4cc3ccc4O)[C@H](O)c3ccc(c(Cl)c3)Oc3cc2cc(c3O[C@@H]2O[C@H](CO)[C@@H](O)[C@H](O)[C@H]2O[C@H]2C[C@](C)(NCc3ccc(C(=O)OCCCCCCN(Cc4ccccn4)Cc4ccccn4)cc3)[C@H](O)[C@H](C)O2)Oc2ccc(cc2Cl)[C@H]1O the regulation factor was 11.4 ± 12.7 (Bacillus subtilis; protein synthesis, refers to: RpsC; 168; concentration not given, 10 min, at peak effective concentration; reference: untreated).
For CN[C@@H]1[C@H](O)[C@H](NC)[C@H]2O[C@]3(O)[C@H](O[C@@H]2[C@H]1O)O[C@H](C)C[C@@]3(O)CNCCC1CCOCC1, “intracellular accumulation ratio” read 2.5 fold (Mycobacteroides abscessus; LC-MS/MS, refers to: intracellular compound; ATCC 19977; 100 µM, 30 min; reference: compound over spectinomycin).
Oc1c(Br)cc(Br)c2nc3c(C(F)(F)F)cc(C(F)(F)F)cc3nc12 has an MBEC of 0.39 µM (Staphylococcus aureus; Calgary Biofilm Device; MRSA 1).
O=C(Nc1ccc2c(c1)CN(c1ccc(Cl)cc1)C2=O)N1CC[C@H](O)C1: growth inhibition “inactive” (Trypanosoma brucei rhodesiense; cell growth, resazurin; STIB-900; concentration not given, 3 days).
For O=C1c2ccccc2C(=O)N1CCCSc1nc2cc3ccccc3cc2c(=O)n1Cc1ccccc1, “virus titre reduction” read 0% (coxsackievirus B4; plaque; BGM; concentration not given, non-toxic dose).
For O=C(Nc1ccccc1Nc1ccccc1)c1cccnc1Br, the inhibition was 4.55% (Valsa mali; mycelial growth, mycelial growth rate method; 50 mg/L).
Under “inhibition zone diameter”, CCOC(=O)C1=C(C)NC2=C(C(=O)CC(C)(C)C2)C1c1ccc(OCC(=O)NN=Cc2cccc([N+](=O)[O-])c2)cc1OCC(=O)NN=Cc1cccc([N+](=O)[O-])c1 (stereo not shown) is recorded as 9.2 ± 0.2 mm (Priestia megaterium; DSM 32; concentration not given, 24 h, 37 °C).
For CO[C@H]1/C=C/O[C@@]2(C)Oc3c(C)c(O)c4c(c3C2=O)C2=NC3(CCN(CC(C)C)CC3)NC2=C(NC(=O)/C(C)=C\C=C\[C@H](C)[C@H](O)[C@@H](C)[C@@H](O)[C@@H](C)[C@H](OC(=O)c2ccccc2F)[C@@H]1C)C4=O, the MIC ratio was 1 (Mycobacteroides abscessus; ATCC 19977; reference: wild type over arr deletion).
With Nc1ncnc2c(CN3C[C@H](CSc4cnccn4)[C@@H](O)C3)c[nH]c12 the IC90 was ~10 ng/mL (≈ 0.028 µM) (Helicobacter pylori; growth; horse blood agar).
